Results collected from several papers.
Numbered parts are unrelated; each lists some results of a single study. Positions count from the first letter of the parent shown.

Series 1
Target: Ras GTPase-activating protein-binding protein 1, C-terminal RGG region (G3BP1, Homo sapiens, UniProt Q13283)
Chain of UniProt Q13283 (whole entry, looked up): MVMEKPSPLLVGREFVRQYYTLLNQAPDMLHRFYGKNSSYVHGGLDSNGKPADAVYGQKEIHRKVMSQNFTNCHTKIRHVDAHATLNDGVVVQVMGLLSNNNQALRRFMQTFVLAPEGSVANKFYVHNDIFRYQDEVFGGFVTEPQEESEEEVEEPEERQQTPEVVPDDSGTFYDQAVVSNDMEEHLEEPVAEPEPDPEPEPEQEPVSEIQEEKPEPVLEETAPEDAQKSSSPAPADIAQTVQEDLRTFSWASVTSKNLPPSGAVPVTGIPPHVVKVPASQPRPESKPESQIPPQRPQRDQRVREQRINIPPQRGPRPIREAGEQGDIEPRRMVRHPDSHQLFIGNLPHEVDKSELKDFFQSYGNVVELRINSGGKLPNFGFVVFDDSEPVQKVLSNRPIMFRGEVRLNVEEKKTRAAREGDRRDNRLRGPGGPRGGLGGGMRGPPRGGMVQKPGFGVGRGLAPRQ
Method: RNA Bind-n-Seq
Molecule type: RNA
Matrix: in vitro
Tested at: 1 µM
Notes: whole 134-nt RNA, ends assumed
With: 150 mM KCl
Baseline: input library
Direction: higher = stronger binding
Endpoint: log2 enrichment
Constant ends, left off below: GGGAGUUCUACAGUCCGACGAUC … UGGAAUUCUCGGGUGUCAAGG
UGUGCUACACAUCGUAUGUACCGAAUCGGGGAAAAAAAGGGGAAAAAAAGGGGAAAAAAAGGAAAGUAUUAUGUUACGCCGUUCGGAUCU: -0.817
ACCAUGCAGGUGGGCAUCUUUAAAAAGUGGGGCAAGGGGGGGAUAGGGAGGGGGGUAACACUUUGGGAACAGGUGGUCCCAGGUCGUUUC: -0.979
ACCAUGCAGGGGGGCAUCUUUGGGAAGUGGGGCAAGGGGGGGAUAGGGAGGGGGGUAACACUUUGGGAACAGGUGGUCCCAGGUCGUUUC: -1.15
UAACUUUAGAGGAGGAUAUGAUGGAUAUGGCAGUGGACGUGGAUUUGGGGAUGGCUAUAAUGGGUAUGGAGGAGGACCUGGAGGUGGCAA: -1.65
UGGGAGGUGGAUUUUGUUUAUUUUUUUAGCUCAUUUCCAGGGGUGGGAAUUUUUUUUUAAUAUGUGUCAUGAAUAAAGUUGUUUUUGAAC: 3.88
CAUAGACAACACGCACCCACACAGACACAGAGGGAAGGGGUUGGGAUGGGGACAGGGUGCACAGCAGGGCGGGGUAGGACCCCAGCCCCU: -0.485
CACAGACAACAAGCACCCACACAGACACAGAGGGAAGGGGUUGGGAUGGGGACAGGGUGCACAGCAGGGCGGGGUAGGACCCCAGCCCCU: -0.00388
AAGUCCUGUGCUACACAUCGUAUGUACCGAAUCGGGUUUGGGUUUGGGGUUUGGGGAAAGUAUUAUGUUACGCCGUUCGGAUCUGCACUU: 2.33
AGUCCUGUGCUACACAUCGUAUGUACCGAAUCGGUUUUGGGGUUUUGGGUUUUGGGGAAAGUAUUAUGUUACGCCGUUCGGAUCUGCACU: -0.552
ACCAUGCAGGUGGGCAUCUUUGGGAAGUGGGGCAAGGGGGGGAUAGGGAGGGGGGUAACACUUUGGGAACAGGAGGUCCCAGGUCGUUUC: 2.18
AGUCCUGUGCUACACAUCGUAUGUACCGAAUCGGGAAAAAGGAAAAAGGAAAAAGGGGAAAGUAUUAUGUUACGCCGUUCGGAUCUGCAC: -1.67
AAGUCCUGUGCUACACAUCGUAUGUACCGAAUCGGGAGGGAAAAAAAGGGUUUGGGAAAGUAUUAUGUUACGCCGUUCGGAUCUGCACUU: 0.64
ACCAUGCAGGUGGGCAUCUUGGGGAAGUGGGGCAAGGGGGGGAUAGGGAGGGGGGUAACACUUUGGGAACAGGUGGUCCCAGGUCGUUUC: -1.17
CAAGUCCUGUGCUACACAUCGUAUGUACCGAAUCGGGCCCGGGCCCGGGCCCGGGAAAGUAUUAUGUUACGCCGUUCGGAUCUGCACUUC: -0.707

Series 2
Target: CCNE1, cyclin fold, Cln2 fusion (human)
Method: yeast growth competition, sequencing
Matrix: yeast
Notes: weak parent motif
Baseline: not given
Direction: higher = stronger binding
Endpoint: normalised enrichment score
Starting sequence: PKN2 docking peptide (human); VSAVQKLDFSDTM
MSAVQKLDFSDTM [V1M]: 0.435
VSAVQKLDFSDDM [T12D]: 0.46
VSAVQKLDFSDCM [T12C]: 0.83
VSRVQKLDFSDTM [A3R]: -0.241
VSAVQKLDFRDTM [S10R]: 0.446
VSAVQKLDFSDNM [T12N]: 0.414
VSAVQKLDFSDPM [T12P]: 1.59
VSAVQKLDFSDYM [T12Y]: 1.03
VSAVQKLDFDDTM [S10D]: 0.703
VSAVQKLDFSLTM [D11L]: 0.848
VSAVQKLFFSDTM [D8F]: 0.823
VSKVQKLDFSDTM [A3K]: -0.238
ASAVQKLDFSDTM [V1A]: 0.546
VSAVQKLGFSDTM [D8G]: 0.11
VSFVQKLDFSDTM [A3F]: 0.657
VSAVQKIDFSDTM [L7I]: -0.601
RSAVQKLDFSDTM [V1R]: 0.536
VSAVQKLHFSDTM [D8H]: 0.429
VSAWQKLDFSDTM [V4W]: -0.179
VSAVQKSDFSDTM [L7S]: -0.338
VAAVQKLDFSDTM [S2A]: 0.851
VSAVQKLDFSDTH [M13H]: 0.839
VHAVQKLDFSDTM [S2H]: 0.222
VSAVQKLDESDTM [F9E]: -0.051
VKAVQKLDFSDTM [S2K]: 0.175

Series 3
Target: Histone acetyltransferase KAT6A, winged helix 1, GST fusion (KAT6A, Homo sapiens, UniProt Q92794, residues 1-85)
Method: protein binding microarray
Molecule type: double-stranded DNA, one strand shown
Matrix: in vitro
Tested at: not given
Notes: 8-mer, flanks averaged, mean of 2 arrays, mostly near background
Baseline: not given
Direction: higher = stronger binding
Endpoint: E-score
Construct (chain): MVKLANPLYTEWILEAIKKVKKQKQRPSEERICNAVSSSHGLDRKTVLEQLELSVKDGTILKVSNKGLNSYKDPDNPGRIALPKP
CGAGCACC: -0.0432
TCCCTGAA: -0.0652
CGTGAGTA: 0.0133
CAAATCTG: -0.167
TCCGCTAA: 0.2
AGAAACTG: -0.0686
AAGTTCGA: -0.163
TAGGCCTA: -0.245
ACGTTCTG: -0.121
GGAGTACA: 0.0241
CCTCTAAG: -0.115
GCAGTGAA: -0.107
CGGGTAAC: 0.309
GAAAATGA: -0.127
GTCCTATA: 0.004
ACGGCAAA: 0.359
CCCAGCTA: -0.174
CAACGAAG: -0.125

Series 4
Target: Runt-related transcription factor 1, full length (RUNX1, Homo sapiens, UniProt Q01196-8, residues 1-480)
Method: protein-binding microarray
Molecule type: hairpin DNA
Matrix: in vitro
Tested at: not given
Notes: whole hairpin DNA, median over replicate spots
Baseline: not given
Direction: higher = stronger binding
Endpoint: median fluorescence
GAGGCCTGCTGTGGTTGGCCTCCTGGCCAACCACAGCAGGCCTCACACTC (5mC at 9): 2630 a.u.
GAGGCCCAACCGCCACAGCCTCCTGGCTGTGGCGGTTGGGCCTCACACTC (5mC at 14): 2830 a.u.
GAGGCCGGTCGCGGTTGGCCTCCTGGCCAACCGCGACCGGCCTCACACTC: 2990 a.u.
CTCAGTTCTGTTGGCTGGACTCCTGTCCAGCCAACAGAACTGAGACACTC: 1690 a.u.
GAGGCCTGTCGTGGTTGGCCTCCTGGCCAACCACGACAGGCCTCACACTC (5mC at 10 34): 3180 a.u.
GAGGCCTGTCTCGGTTGGCCTCCTGGCCAACCGAGACAGGCCTCACACTC: 1740 a.u.
GAGGCCCAACCCGAACAGCCTCCTGGCTGTTCGGGTTGGGCCTCACACTC: 1980 a.u.
CTCAGTTCTGTGGCGTGGACTCCTGTCCACGCCACAGAACTGAGACACTC (5mC at 30): 1950 a.u.
GAGGCCTGTTGTGGGTGGCCTCCTGGCCACCCACAACAGGCCTCACACTC (5mC at 30): 1970 a.u.
CTCAGTTCTGTGCGCTGGACTCCTGTCCAGCGCACAGAACTGAGACACTC: 1700 a.u.
GAGGCCCAACGGCAACAGCCTCCTGGCTGTTGCCGTTGGGCCTCACACTC (5mC at 10 34): 1810 a.u.
GAGGCCTGTCGCGGCGGGCCTCCTGGCCCGCCGCGACAGGCCTCACACTC (5mC at 15 29): 1890 a.u.
GAGGCCTGTTGCGCGTGGCCTCCTGGCCACGCGCAACAGGCCTCACACTC (5mC at 14 30): 1880 a.u.
GAGGCCTGTCGCCGTTGGCCTCCTGGCCAACGGCGACAGGCCTCACACTC (5mC at 13 31): 1900 a.u.
GAGGCCCAGCCGCAACAGCCTCCTGGCTGTTGCGGCTGGGCCTCACACTC (5mC at 36): 2510 a.u.
GAGGCCCAACCGCCGCAGCCTCCTGGCTGCGGCGGTTGGGCCTCACACTC (5mC at 14): 2800 a.u.
GAGGCCAGTCGCGGTTGGCCTCCTGGCCAACCGCGACTGGCCTCACACTC: 2550 a.u.
GAGGCCCAACTGCAACAGCCTCCTGGCTGTTGCAGTTGGGCCTCACACTC: 1670 a.u.
GAGGCCTGTCGCGGCGGGCCTCCTGGCCCGCCGCGACAGGCCTCACACTC (5mC at 29): 2000 a.u.

Series 5
Target: RNA binding protein fox-1 homolog 2, RRM domain, GST-SBP tag (RBFOX2, Homo sapiens, UniProt O43251-10, residues 100-194)
Method: RNA Bind-n-Seq
Molecule type: RNA
Matrix: in vitro
Tested at: 365 nM
Notes: natural RNA segment, single round, ends assumed
Baseline: no-protein control
Direction: higher = stronger binding
Endpoint: RBNS enrichment (R)
Constant ends, left off below: GGGAGUUCUACAGUCCGACGAUC … UGGAAUUCUCGGGUGCCAA
Target sequence (chain): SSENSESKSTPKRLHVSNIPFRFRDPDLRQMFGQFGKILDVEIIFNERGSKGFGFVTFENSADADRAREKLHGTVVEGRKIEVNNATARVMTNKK
AGGUGAGCUAGACCCAACCCUUAGCUUUUAGCCUGGCUGUCACCUUUUUAAUUUCCAGAACUGCACAAUGACCAGCAGGAGGGAAGGACAGACAUCAAGUGCCAGAUGUU: 0.599
AAUGUAAAUCACUAUAAUUACAAAUUGGUGUUAAAUCCUUUGGGUUAUCCACUGCCUUAAAAUUAUACCUAUUUCAUGUUUAAAAAGAUAUCAAUCAGAAUUGGAGUUUU: 0.319
GUCUCAUUCCAUGACUAUAGGUGAGAGAAUUCUUUCCUAAGAGGGUUUGAUACCAAUAGGGGAAAAUGUAAAAUGUUCAGUCUUUAUGACAACCUGGCAUAAAGGAGUCA: 0.288
GAUGGUUGUGGGGGUUUCUAGGAAGCAGCUGCUGUGACAGGCCAAUCCCAGGCUUGCCCCCGAGCCCUCCUGUCCUUCUGGGUUUGUGUUUGCCUUGCCUGGUGCUUCCU: 2
UCGUGAGUCAUUUUACUUUAAAAGGGAAAAACAAAUUUGUAGCAACUCUGAAGUAUCAAGAGUUUUAACUACUUGUCUCUCUUUUGCUAAGAAGGGAUUUUUGAAUAUGC: 0.414
UGGUAAAAGUAACUUACUUAAAAAACAUAUGUACACAUAUGUAUGCAAGUAUGUAUAUAUGUGUAUGCUCAGAUUAACUUCCAUAGGUACAUAAGUGAAAGAAGUCUCAG: 0.448
UGAAAGCCUGAACCUCCAUUUUUCUUCUUGGCUCCAGUUUUGCUGGUCCUCUGGAGAACUCUUCGUGAGCACUGGUGCCGUGACCCACUUGGGAUCUCUGCUGUGCCCUU: 0.227
AGGAUUGUGGGAGGCUUCACAACCCCUGCUUUCCUGACUUCCUCUUCUGCCCAACACUGGGUGCCCCUUCCCAGUUUCCCAGCAGGGGCUUCAUGGGCCACCGUCAGUGG: 0.21
GCUUAUGUUUGAUCAUCGGCCAAGGUCCUGGCGAGAACUGCCUCUGCGGCUAGCUGAUUUUGGGGUACUUCAUAGGAACGAGCUGUCUGGAGCACUCACAGGACUCACCC: 0.22
GUGUCCUGUGAAUUUCAACCCUUGGAGCCUAAGAAAACCCUAGGAAGAUGAUGUUAAUUUGCUGUCAUUUCCUAAUUCAGGAUCUAUCAUCAAAUGAAACAUGAAAAAAA: 0.206
UUAAAAGACUAGCAUCAGUAGGCUCUAUUCUUUUGUAUUUGGGUUAGAAAUUUAAUAUAAUCAGCCUUAACUAUGUUGUCUAACUCCUAAAGUACUUUGUUAUAAAGUCU: 1.09
UGUAUACACUGCUUGCAUAAACUCAACCAGCUGCCUUUUUAAAGGGAGCUCUAGUCCUUUUUGUGUAAUUCACUUUAUUUAUUUUAUUACAAACUUCAAGAUUAUUUAAG: 0.556

A few entries again (series 4):
GAGGCCCAACGGCAACAGCCTCCTGGCTGTTGCCGTTGGGCCTCACACTC (5mC at 10 34): 1810 a.u.
CTCAGTTCTGTGCGCTGGACTCCTGTCCAGCGCACAGAACTGAGACACTC: 1700 a.u.
GAGGCCTGTCGTGGTTGGCCTCCTGGCCAACCACGACAGGCCTCACACTC (5mC at 10 34): 3180 a.u.
CTCAGTTCTGTTGGCTGGACTCCTGTCCAGCCAACAGAACTGAGACACTC: 1690 a.u.
GAGGCCCAACCGCCACAGCCTCCTGGCTGTGGCGGTTGGGCCTCACACTC (5mC at 14): 2830 a.u.
GAGGCCTGCTGTGGTTGGCCTCCTGGCCAACCACAGCAGGCCTCACACTC (5mC at 9): 2630 a.u.
GAGGCCTGTTGTGGGTGGCCTCCTGGCCACCCACAACAGGCCTCACACTC (5mC at 30): 1970 a.u.
GAGGCCCAACCGCCGCAGCCTCCTGGCTGCGGCGGTTGGGCCTCACACTC (5mC at 14): 2800 a.u.
GAGGCCCAACTGCAACAGCCTCCTGGCTGTTGCAGTTGGGCCTCACACTC: 1670 a.u.
CTCAGTTCTGTGGCGTGGACTCCTGTCCACGCCACAGAACTGAGACACTC (5mC at 30): 1950 a.u.
GAGGCCCAGCCGCAACAGCCTCCTGGCTGTTGCGGCTGGGCCTCACACTC (5mC at 36): 2510 a.u.
GAGGCCCAACCCGAACAGCCTCCTGGCTGTTCGGGTTGGGCCTCACACTC: 1980 a.u.
